Results pooled from the literature.
± marks the error that the study gave.

Compound | cell line | assay | conditions | how to read | measurement | value
COc1cccc2c1C(=O)c1c(O)c3c(c(O)c1C2=O)C[C@@](O)(C(=O)CO)C[C@@H]3O[C@H]1C[C@H](N)[C@H](O)[C@H](C)O1 | BT-12 | cell viability, MTT | 10 µM, 72 h | – | inhibition | 93.5%
Nc1cccc2c1C(=O)N(C1CCC(=O)NC1=O)C2=O (centres unmarked) | RPMI-8226 | flow cytometry, measured: CD81 | concentration not given | reference: comparator compound alone | surface marker level | 160%
O=C(NC(NC(=S)Nc1ccc(F)c([N+](=O)[O-])c1)C(Cl)(Cl)Cl)C(c1ccccc1)c1ccccc1 (centres unmarked) | HeLa expressing Ub(G76V)-GFP | Ub(G76V)-GFP degradation, cycloheximide chase | 12 µM | – | inhibition | 32%
Nc1ncn([C@@H]2O[C@H](CO)[C@@H](O)[C@H]2O)c(=O)n1 | HBL-1 | – | 0.1 µM, 120 h | – | viability | 128%
CC1(C)CN(CCCCC(=O)N[C@@H](CCC(=O)O)C(=O)N[C@@H](CCC(=O)O)C(=O)N[C@H](CCCCNC(=O)CCCCCCC(=O)NCCCC[C@H](NC(=O)N[C@@H](CCC(=O)O)C(=O)O)C(=O)O)C(=O)O)CC[N]2CC(C)(C)[S][Tc]2(=[O])[S]1 (some centres unmarked) [technetium-99m labelled] | LNCaP | – | 25 nM, 1 h, 37 °C | – | internalized activity | 2.46 ± 0.79 %AD/mg protein
COc1cc2ncnc(Nc3ccc(Oc4ccccc4)c(C)c3C)c2cc1OC.Cl | LoVo (KRAS G13D) | cell viability, resazurin | 0.1 µM, 72 h, with: trametinib 0 nM | reference: DMSO | average fractional effect | 6%
COc1ccc(CCc2nc3cc(-c4c(C)noc4C)ccc3n2C[C@H](C)N2CCOCC2)cc1Cl | HBL-1 | – | 0.5 µM, 120 h | – | viability | 117%
CC(C)NCC(O)c1ccc(O)c(O)c1 (centres unmarked) | mouse ventricular cardiomyocytes | – | dose not given, 0.075 s | – | sarcomere length | 1.79 µm
COc1ccc(COc2ccc(Cc3cnc(N)nc3N)cc2OC)cc1 | hiPSC cardiomyocytes | CellTiter-Glo | concentration not given, 24 h | reference: vehicle | ATP level | 102%
Cc1ccc(NC(=O)CCCCCC(=O)Nc2ccccc2N)cc1 | HBL-1 | – | 1 µM, 120 h | – | viability | 94.6%
COc1ccc(NC(=S)N/N=C/c2cccc3cc4ccccc4nc23)cc1 | HeLa | PI flow cytometry | IC25, 48 h | – | G2/M phase cells | 11.1 ± 1.5%
CC(C)c1nn(-c2c(Cl)cccc2Cl)c2nc(Cc3ccc(OCCO)cc3)[nH]c(=O)c12 | HeLa expressing Ub(G76V)-GFP | Ub(G76V)-GFP degradation, cycloheximide chase | 12 µM | – | inhibition | 14%
COc1cnc2cccc(N3CCc4c(cc(Cn5ccnc5C)cc4-c4cn(C)nc4C(F)(F)F)C3=O)c2c1 | MM1.S | cell growth, inhibitor | 120 h | – | EC50 | > 30 µM
O=C(CCCCCCC(=O)Nc1ccc([C@H]2O[C@@H](CSc3nc(-c4ccccc4)c(-c4ccccc4)o3)C[C@@H](c3ccc(CO)cc3)O2)cc1)NO | HBL-1 | – | 1 µM, 120 h | – | viability | 78.9%
Cn1cc(-c2ccc(-c3cncc(Cl)c3N3CCC4(CCNC4=O)CC3)cc2)cn1 | COLO 205 | gene expression, microarray, measured: DLGAP5 mRNA | concentration not given, 6 h | reference: untreated cells | log2 fold change | -2.36
COc1cc2ncnc(Nc3ccc(OCc4ccccc4)cc3)c2cc1OC | HeLa expressing Ub(G76V)-GFP | Ub(G76V)-GFP degradation, inhibitor, cycloheximide chase | 12 µM | – | inhibition | 19%
O=C(NC1CCN(CCCCC2(C(=O)NCC(F)(F)F)c3ccccc3-c3ccccc32)CC1)c1ccccc1-c1ccc(C(F)(F)F)cc1 | BT-12 | cell viability, MTT | 10 µM, 72 h | – | inhibition | 94.3%
O=C(CCCCCCC(=O)Nc1ccc(I)cc1)NO | HBL-1 | – | 0.1 µM, 120 h | – | viability | 88.6%
CN1CCC(CNc2ccc3ncc(-c4cccc(OC(F)(F)F)c4)n3n2)CC1 | BT-12 | cell viability, MTT | 10 µM, 72 h | – | inhibition | 94.8%
O=C(NO)c1cccc(C(=O)NCCc2ccccc2)c1 | HBL-1 | – | 1 µM, 120 h | – | viability | 99.5%
C[C@H]1[C@@H](O)O[C@@H]2O[C@@]3(C)CC[C@H]4[C@H](C)CC[C@@H]1[C@@]24OO3 | THP-1 | annexin V/PI flow cytometry, measured: annexin V-/PI- | 0.8 µM, 24 h | – | viable cells | 96.7%
Nc1ccccc1NC(=O)c1ccc(CNC(=O)OCc2cccnc2)cc1 | HBL-1 | – | 0.5 µM, 120 h | – | viability | 36.3%
COC(=O)[C@]12CCC(C)(C)C[C@H]1[C@H]1C(=O)C=C3[C@@]4(C)C=C(C#N)C(=O)C(C)(C)[C@@H]4CC[C@@]3(C)[C@]1(C)CC2 | HepG2 | high content imaging, measured: DNA structure | 6 h, distribution mode 1 | – | point of departure | 0.038 µM
